Experimental data of several laboratories.
Compare with care: the assays were run in different laboratories. Several values in a cell are separate wells, animals, samples, runs or records. ± marks the error that the study gave.

C=CC(=O)Nc1cc(Nc2nccc(-c3cn(C)c4ccccc34)n2)c(OC)cc1N(C)CCNC
recovery (storage stability; human dried blood spot; 2 h, on ice, LQC level): 104%

F[C@@H]1[C@H](c2ccc(-c3cncnc3)cc2)[C@H](F)[C@H](F)C[C@@H]1F
hepatic clearance (liver microsome stability; mouse liver microsomes; 1 µM): 29 mL/min/kg

O=C(O)CCCOc1ccc([18F])cc1-c1cc(-c2ccccc2C(F)(F)F)n(-c2ccccc2)n1
tissue uptake (mouse, bone; intravenous, dose not given, 180 min): 1.74 ± 0.42 %ID/g

Cc1ccc(-c2ccc([C@H]3[C@@H](F)[C@@H](F)C[C@@H](F)[C@H]3F)cc2)cn1
hepatic clearance (hepatocyte stability; cryopreserved mouse hepatocytes; 1 µM): 76 mL/min/kg

C=C(NC(=O)c1csc(-c2nc3c(cc2O)-c2nc(cs2)C(=O)NC(C(C)O)C(=O)NC(=C(C)OC)c2nc(cs2)C(=O)NC2c4nc(cs4)C(=O)NC(COC(=O)c4c5c6c(cccc6n4O)COC(=O)C(OC4CC(C)(O)C(N(C)C)C(C)O4)C2OC5)c2nc-3cs2)n1)C(N)=O (stereo not shown)
half-life (male Sprague-Dawley rat, plasma; intravenous, 18 mg/kg, single dose, infusion): 6.14 h

CN(C(=O)C(C)(C)c1cc(C(F)(F)F)cc(C(F)(F)F)c1)c1cnc(N2C[C@H]3COCCN3C[C@H]2CO)cc1-c1ccc(F)cc1CO
pathway contribution to clearance (pooled human liver microsomes; pH 7.4, substrate depletion): 100%

CCCNC(=O)[C@H]1O[C@@H]1C(=O)N[C@H](C(=O)N1CCC[C@H]1C(=O)OCC1=C2C(C)=CC(C)=[N+]2[B-](F)(F)n2c(C)cc(C)c21)[C@@H](C)CC
photodecomposition quantum yield (Nd:YAG laser irradiation; methanol; irradiation at 532 nm): 0.19 ± 0.02%

C/C(N)=N/C(=N\S(=O)(=O)c1ccc(C(F)(F)F)cc1)N1C[C@H](c2ccccc2)C(c2ccc(Cl)cc2)=N1
empirical scaling factor (dog; baseline: in vivo over in vitro CLint): 29

COc1ccc2c(c1)CN(C(=O)CCN1CCC(Cc3ccccc3)CC1)CC[S+]2[O-] (stereo not shown)
fu (dog plasma; 750 ng/mL): 0.33

O=C(NS(=O)(=O)c1cccs1)c1cc2ccccc2n1Cc1ccc(Br)c2ccccc12
volume of distribution (steady state) (Sprague-Dawley rat, male, plasma; intravenous, 2 mg/kg): 0.507 L/kg

O=C(Nc1cc(-c2ccnc3[nH]ccc23)c(Cl)cn1)[C@H]1CCC[C@@H](NC(=O)C(F)(F)F)C1
hepatic clearance (rat liver microsomes): 31.2 mL/min/kg

C=CC(=O)N1CCCC(n2c(=O)c3ncccc3n(Cc3ccc(Oc4ccccc4)cc3)c2=O)C1 (stereo not shown)
compound remaining (metabolic stability; human, hepatocytes; 1 µM, 30 min): 77.3%

CC[C@H](C)[C@@H]1NC(=O)[C@H](Cc2ccc(O)cc2)NC(=O)CCCSC[C@@H](C(=O)N(CC(=O)N[C@@H](CC(C)C)C(=O)NCC(N)=O)Cc2ccc(F)cc2)NC(=O)[C@H](CC(N)=O)NC(=O)[C@H](CCC(N)=O)NC1=O
AE leading to discontinuation (human; intranasal, 15 µg single dose): 0%

O=C(c1ccc(C2CCCCC2)cc1)N1CCCC1
hepatic clearance (liver microsome stability; human liver microsomes; 1 µM, without NADPH): 3.9 mL/min/kg

COc1cccc(OC)c1-c1cc(C(=O)NC2(C(=O)O)C3CC4CC(C3)CC2C4)nn1-c1ccc(C(=O)N(C)CCCN(C)CCCN(C)C(=O)[C@H](CCCCNC(=O)[C@H](CC(C)C)NC(=O)C2OC2C(=O)O)NC(=O)CN2CCN(CC(=O)[O-])CCN(CC(=O)[O-])CCN(CC(=O)[O-])CC2)cc1C(C)C.[177Lu+3] (mixture of isomers)
tumour-to-blood ratio (mouse, HT-29 xenograft; 24 h post injection, biodistribution; baseline: tumour over blood uptake): 23.9

O=C(Nc1cnccc1-c1ccc([18F])nc1)c1ccnc(NC(=O)C2CC2)c1
SUV (mice, transgenic, GSK-3β, early-stage, hippocampus; intravenous, dose not given, 120 min): 0.02

O=C(NCCO)c1ccc([C@H]2[C@@H](F)[C@@H](F)C[C@@H](F)[C@H]2F)cc1
hepatic clearance (liver microsome stability; human liver microsomes; 1 µM, without NADPH): 3.9 mL/min/kg

COC1C=COC2(C)Oc3c(C)c(O)c4c(c3C2=O)C2=NC3(CCN(CC(C)C)CC3)NC2=C(NC(=O)C(C)=CC=CC(C)C(O)C(C)C(O)C(C)C(OC(=O)Nc2cnccn2)C1C)C4=O (stereo not shown)
fAUC/MIC ratio (CD-1 mouse, plasma; oral, dose not given, efficacy dose): 173

O=C(Nc1cnccc1-c1ccc([18F])cc1)c1ccnc(NC(=O)C2CC2)c1
mean SUV (ex vivo gamma counting; GSK-3β transgenic mice, early-stage, left kidney; intravenous, 120 min, added: tariquidar 15 mg/kg iv): 0.83

CNC(=O)C1CCCN(C(=O)C2CC3CCC2N3C(=O)[C@@H]2C[C@@H](O)CN2C(=O)NCc2cccc(Cl)c2F)C1 (mixture of isomers)
6β-hydroxytestosterone formation (CYP3A4 (human); inhibitor, time-dependent inhibition; 16.7 µM, preincubated without NADPH, added: testosterone substrate): 171 ng/mL

COc1cccc(OC)c1-c1cc(C(=O)NC2(C(=O)O)C3CC4CC(C3)CC2C4)nn1-c1ccc(C(=O)N(C)CCCN(C)C(=O)[C@H](CCCCNC(=O)[C@H](CC(C)C)NC(=O)C2OC2C(=O)O)NC(=O)CN2CCN(CC(=O)[O-])CCN(CC(=O)[O-])CCN(CC(=O)[O-])CC2)cc1C(C)C.[177Lu+3] (mixture of isomers)
tissue uptake (mouse, HT-29 xenograft, spleen; 24 h post injection): 0.44 %ID/g

COc1ccc(CN2CCC(F)(F)C(COc3ccc(F)c(C)c3)C2)cc1F (stereo not shown)
fu (equilibrium dialysis; human plasma): < 0.0003

COC(=O)[C@@]1(C)C=C(C(=O)Nc2cccc(C(=O)Nc3ccc(Nc4nccc(-c5cccnc5)n4)c(C)c3)c2)C(=O)CC1
compound remaining (metabolic stability; Wistar rat, male, primary hepatocytes; 1 µM, 10 min): 75.6%

CC(C)(O)c1ncc([S@](N)(=O)=NC(=O)Nc2c3c(cc4c2CCC4)CCC3)s1
subjects with adverse events (measured: Vascular disorders; healthy human volunteers; oral, 200 mg once daily, 14 days, spray-dried dispersion): 14%

CC(C)C[C@H](NC(=O)[C@H](CO)NC(=O)[C@H](CCC(=O)O)NC(=O)CNC(=O)[C@H](C)NC(=O)OCc1ccccc1)C(=O)N[C@@H](Cc1ccc(O)cc1)C(=O)N[C@@H](CCC(=O)O)C(N)=O
compound remaining (metabolic stability; human, plasma; 1 h): 86.4%

COc1cccc(C2CC(c3ccccc3Cl)Nc3nc(N)nn32)c1 (stereo not shown)
permeability coefficient (PAMPA; brain lipid membrane; 10 µM, 4 h): 9.16 ×10⁻⁶ cm/s

C=C[C@]1(C)C[C@@H](OC(=O)CSc2ccc(NC(=O)c3ccco3)cc2)[C@]2(C)[C@H](C)CC[C@]3(CCC(=O)[C@H]32)[C@@H](C)[C@@H]1O
elimination half-life (M. gallisepticum-infected chickens, plasma; intramuscular, 40 mg/kg single dose): 3.61 h

CC(C)OC(=O)[C@H](CO)NCc1cc(Cl)c(OCc2cccc(-c3ccccc3)c2Br)cc1OCc1cccnc1
body weight (hPD-L1 MC-38 tumour, humanised hPD-1 C57BL/6 mouse; oral, 2.5 mg/kg × 21, day 21): 21.8 ± 1.1 g

CC(C)=CCc1cc(C(=O)/C=C/c2ccc(O)cc2)c(O)cc1O
CLint (phase I metabolism; mouse liver microsomes): 10.7 µL/min/mg

C=CC(=O)Nc1cc(Nc2nccc(-c3c[nH]c4ccccc34)n2)c(OC)cc1N(C)CCN(C)C
recovery (human plasma; 5 h, storage stability, medium QC sample): 90.2%

COc1cccc(OC)c1-c1cc(C(=O)NC2(C(=O)O)C3CC4CC(C3)CC2C4)nn1-c1ccc(C(=O)N(C)CCOCCN(C)C(=O)[C@H](CCCCNC(=O)[C@H](CC(C)C)NC(=O)C2OC2C(=O)O)NC(=O)CN2CCN(CC(=O)[O-])CCN(CC(=O)[O-])CCN(CC(=O)[O-])CC2)cc1C(C)C.[177Lu+3] (mixture of isomers)
tumour-to-kidney ratio (mouse, HT-29 xenograft; 24 h post injection, biodistribution; baseline: tumour over kidney uptake): 0.41

CCCC[C@H](NC(=O)CNC(=O)CNC(=O)[C@H](CCCCNC(=O)[C@H](CC(N)=O)NC(=O)C(C)c1ccc(CC(C)C)cc1)NC(=O)CN1CCN(CC(=O)O)CCN(CC(=O)O)CCN(CC(=O)O)CC1)C(=O)N[C@H]1CC(=O)NCCCC[C@@H](C(N)=O)NC(=O)[C@H](Cc2c[nH]c3ccccc23)NC(=O)[C@H](CCCNC(=N)N)NC(=O)[C@@H](Cc2ccccc2)NC(=O)[C@H](Cc2c[nH]cn2)NC1=O (stereo partly shown) [lutetium-177 labelled]
urinary excretion (C57 mouse, urine; 2 h): 67.1 ± 3.44%

Cc1cc2c(cc1O)C=C1C=CC(=O)C(C)(C)[C@H]1CC2
MRT(0-inf) (male Sprague-Dawley rat, plasma; intravenous, 2 mg/kg): 0.6 h

CC(C(=O)O)n1nc(Cn2cc3cc(OCC[18F])c(Cl)cc3n2)c2ccccc2c1=O (racemic)
tracer uptake (rat, bone; 2 h): 0.1 %ID/g

Cc1ccc(CN2C(=O)/C(=N\c3ccc(Cl)cc3Br)c3ccccc32)cc1
Mon% (mouse, blood; 150 mg/kg): 2.63 ± 0.4%

CC(C)OCCOCc1ccc(OCC(O)CN(N=O)C(C)C)cc1 (stereo not shown)
C>T mutation frequency (duplex sequencing; NMRI mouse, bone marrow; concentration not given): increased

O=C(NCCOc1ccc(F)cc1)c1ccc(C2CCCCC2)cc1
hepatic clearance (liver microsome stability; mouse liver microsomes; 1 µM): 87 mL/min/kg

CC[C@H](C)[C@H](NC(=O)[C@@H](NC(=O)[C@H](CCCCN)NC(=O)[C@@H](NC(=O)[C@@H]1CCCN1[C@@H]1CN(C(=O)[C@@H](NC(=O)[C@@H](NC(=O)[C@@H](NC(=O)[C@@H](NC(=O)[C@@H](NC(=O)[C@@H](N)CCCCN)C(C)C)C(C)C)C(C)C)[C@@H](C)CC)[C@@H](C)O)CC[C@H]1NS(=O)(=O)c1ccc(C)cc1)[C@@H](C)O)C(C)C)C(=O)N[C@@H](CC(C)C)C(=O)N[C@@H](Cc1c[nH]cn1)C(N)=O
helix content (CD spectroscopy; 20 mM phosphate buffer; 125 µM, 20 °C): 12.1%

Cc1nn(-c2nc3c(F)cc(F)cc3s2)c(O)c1C(c1ccc(C(F)(F)F)cc1)c1c(C)nn(-c2nc3c(F)cc(F)cc3s2)c1O
AUC back-extrapolated observed (ICR mouse, plasma; intravenous, 5 mg/kg): 0.914% and 1.21% and 1.09%

CCN(CC)c1ccc2c(c1)O[B-]1(c3ccccc3OC)OC(=O)C(c3ccccc3)=N[N+]1=C2 (stereo not shown)
fluorescence emission maximum (toluene): 508 nm

For quick reference, copied from above:
CNC(=O)C1CCCN(C(=O)C2CC3CCC2N3C(=O)[C@@H]2C[C@@H](O)CN2C(=O)NCc2cccc(Cl)c2F)C1 (mixture of isomers)
6β-hydroxytestosterone formation (CYP3A4 (human); inhibitor, time-dependent inhibition; 16.7 µM, preincubated without NADPH, added: testosterone substrate): 171 ng/mL

COc1cccc(OC)c1-c1cc(C(=O)NC2(C(=O)O)C3CC4CC(C3)CC2C4)nn1-c1ccc(C(=O)N(C)CCCN(C)C(=O)[C@H](CCCCNC(=O)[C@H](CC(C)C)NC(=O)C2OC2C(=O)O)NC(=O)CN2CCN(CC(=O)[O-])CCN(CC(=O)[O-])CCN(CC(=O)[O-])CC2)cc1C(C)C.[177Lu+3] (mixture of isomers)
tissue uptake (mouse, HT-29 xenograft, spleen; 24 h post injection): 0.44 %ID/g

COc1ccc(CN2CCC(F)(F)C(COc3ccc(F)c(C)c3)C2)cc1F (stereo not shown)
fu (equilibrium dialysis; human plasma): < 0.0003

COC(=O)[C@@]1(C)C=C(C(=O)Nc2cccc(C(=O)Nc3ccc(Nc4nccc(-c5cccnc5)n4)c(C)c3)c2)C(=O)CC1
compound remaining (metabolic stability; Wistar rat, male, primary hepatocytes; 1 µM, 10 min): 75.6%

CC(C)(O)c1ncc([S@](N)(=O)=NC(=O)Nc2c3c(cc4c2CCC4)CCC3)s1
subjects with adverse events (measured: Vascular disorders; healthy human volunteers; oral, 200 mg once daily, 14 days, spray-dried dispersion): 14%
